# Results pooled from the literature.
# Protocols differ between the studies behind these lines. ± gives the spread as reported.
# histidine kinase ComD: histidine kinase ComD (Streptococcus pneumoniae serotype 4, UniProt A0A0H2US84)
# UniProt P56450, sequence (whole entry, looked up): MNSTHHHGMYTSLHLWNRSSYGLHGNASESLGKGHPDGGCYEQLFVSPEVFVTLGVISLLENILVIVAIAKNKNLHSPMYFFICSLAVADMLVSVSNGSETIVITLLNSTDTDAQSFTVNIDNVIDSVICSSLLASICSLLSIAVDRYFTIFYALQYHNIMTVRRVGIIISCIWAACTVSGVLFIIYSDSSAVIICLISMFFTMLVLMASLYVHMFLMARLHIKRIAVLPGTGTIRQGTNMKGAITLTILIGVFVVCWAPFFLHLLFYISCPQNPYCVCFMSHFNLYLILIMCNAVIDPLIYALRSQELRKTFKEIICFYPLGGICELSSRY
# UniProt P00747, sequence (whole entry, looked up): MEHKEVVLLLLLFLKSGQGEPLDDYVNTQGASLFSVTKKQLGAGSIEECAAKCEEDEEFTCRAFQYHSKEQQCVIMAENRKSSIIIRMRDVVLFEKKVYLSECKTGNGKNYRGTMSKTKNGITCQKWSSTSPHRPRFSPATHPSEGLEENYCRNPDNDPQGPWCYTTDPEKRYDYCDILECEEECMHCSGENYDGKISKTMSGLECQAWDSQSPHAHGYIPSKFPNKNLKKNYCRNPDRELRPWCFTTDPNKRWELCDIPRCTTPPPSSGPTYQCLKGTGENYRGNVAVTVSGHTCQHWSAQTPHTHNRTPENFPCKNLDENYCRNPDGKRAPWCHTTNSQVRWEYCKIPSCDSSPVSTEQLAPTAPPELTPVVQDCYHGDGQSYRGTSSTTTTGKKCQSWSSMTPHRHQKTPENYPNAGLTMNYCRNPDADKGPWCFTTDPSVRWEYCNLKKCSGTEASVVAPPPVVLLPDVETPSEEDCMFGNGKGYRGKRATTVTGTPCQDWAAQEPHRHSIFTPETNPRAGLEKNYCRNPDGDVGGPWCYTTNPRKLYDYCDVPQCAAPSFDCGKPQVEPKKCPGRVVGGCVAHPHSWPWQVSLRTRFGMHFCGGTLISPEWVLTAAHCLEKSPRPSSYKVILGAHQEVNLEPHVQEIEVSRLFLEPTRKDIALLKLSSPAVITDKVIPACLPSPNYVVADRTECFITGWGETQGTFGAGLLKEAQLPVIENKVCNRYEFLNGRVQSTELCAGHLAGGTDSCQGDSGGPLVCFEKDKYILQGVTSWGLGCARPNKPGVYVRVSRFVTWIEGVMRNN
# UniProt Q9NSD7, sequence (whole entry, looked up): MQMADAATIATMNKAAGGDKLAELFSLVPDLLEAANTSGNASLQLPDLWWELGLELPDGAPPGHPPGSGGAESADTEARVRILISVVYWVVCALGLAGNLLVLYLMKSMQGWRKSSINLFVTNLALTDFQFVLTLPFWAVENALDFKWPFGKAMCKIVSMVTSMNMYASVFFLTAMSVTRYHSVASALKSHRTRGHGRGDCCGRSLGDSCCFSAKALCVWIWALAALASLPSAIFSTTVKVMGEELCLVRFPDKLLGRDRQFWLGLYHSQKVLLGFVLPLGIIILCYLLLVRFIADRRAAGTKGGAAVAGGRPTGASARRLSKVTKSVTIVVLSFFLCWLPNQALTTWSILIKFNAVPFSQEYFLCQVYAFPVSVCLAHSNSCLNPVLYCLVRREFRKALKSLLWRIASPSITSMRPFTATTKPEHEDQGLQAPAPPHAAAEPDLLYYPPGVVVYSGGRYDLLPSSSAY
# UniProt P35462, sequence (whole entry, looked up): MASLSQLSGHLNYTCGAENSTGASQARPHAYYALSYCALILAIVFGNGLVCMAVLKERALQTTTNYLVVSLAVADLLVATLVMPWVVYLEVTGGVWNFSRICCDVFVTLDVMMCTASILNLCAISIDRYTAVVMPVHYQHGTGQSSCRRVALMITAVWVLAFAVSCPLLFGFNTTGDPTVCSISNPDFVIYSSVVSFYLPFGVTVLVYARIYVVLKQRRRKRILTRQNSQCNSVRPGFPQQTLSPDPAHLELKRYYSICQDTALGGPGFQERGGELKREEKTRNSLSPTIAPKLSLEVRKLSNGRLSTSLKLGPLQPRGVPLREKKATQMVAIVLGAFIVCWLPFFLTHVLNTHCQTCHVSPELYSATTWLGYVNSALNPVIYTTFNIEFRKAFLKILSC
# UniProt Q96NY8, sequence (whole entry, looked up): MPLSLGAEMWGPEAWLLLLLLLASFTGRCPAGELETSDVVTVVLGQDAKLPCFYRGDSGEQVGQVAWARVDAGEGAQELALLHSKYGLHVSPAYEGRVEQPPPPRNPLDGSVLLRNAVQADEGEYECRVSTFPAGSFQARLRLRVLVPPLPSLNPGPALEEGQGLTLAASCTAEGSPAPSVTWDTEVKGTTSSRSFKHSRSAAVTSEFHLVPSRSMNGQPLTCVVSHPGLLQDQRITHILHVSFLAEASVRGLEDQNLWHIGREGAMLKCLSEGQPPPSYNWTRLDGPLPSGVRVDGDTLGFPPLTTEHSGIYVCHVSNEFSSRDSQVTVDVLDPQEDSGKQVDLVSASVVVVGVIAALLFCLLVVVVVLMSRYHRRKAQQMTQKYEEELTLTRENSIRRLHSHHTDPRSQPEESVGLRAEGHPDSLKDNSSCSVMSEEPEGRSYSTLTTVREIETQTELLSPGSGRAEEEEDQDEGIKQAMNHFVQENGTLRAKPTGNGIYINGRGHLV
# UniProt P33533, sequence (whole entry, looked up): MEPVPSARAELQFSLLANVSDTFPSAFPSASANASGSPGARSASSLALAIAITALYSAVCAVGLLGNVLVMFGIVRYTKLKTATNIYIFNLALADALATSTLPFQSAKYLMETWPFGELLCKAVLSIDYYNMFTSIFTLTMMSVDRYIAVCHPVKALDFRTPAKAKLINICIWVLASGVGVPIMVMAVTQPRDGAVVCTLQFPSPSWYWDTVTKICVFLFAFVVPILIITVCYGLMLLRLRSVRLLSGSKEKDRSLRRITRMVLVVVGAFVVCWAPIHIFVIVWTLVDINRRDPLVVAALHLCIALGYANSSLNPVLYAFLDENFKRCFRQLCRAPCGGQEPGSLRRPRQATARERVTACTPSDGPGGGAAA
# UniProt P21554, sequence (whole entry, looked up): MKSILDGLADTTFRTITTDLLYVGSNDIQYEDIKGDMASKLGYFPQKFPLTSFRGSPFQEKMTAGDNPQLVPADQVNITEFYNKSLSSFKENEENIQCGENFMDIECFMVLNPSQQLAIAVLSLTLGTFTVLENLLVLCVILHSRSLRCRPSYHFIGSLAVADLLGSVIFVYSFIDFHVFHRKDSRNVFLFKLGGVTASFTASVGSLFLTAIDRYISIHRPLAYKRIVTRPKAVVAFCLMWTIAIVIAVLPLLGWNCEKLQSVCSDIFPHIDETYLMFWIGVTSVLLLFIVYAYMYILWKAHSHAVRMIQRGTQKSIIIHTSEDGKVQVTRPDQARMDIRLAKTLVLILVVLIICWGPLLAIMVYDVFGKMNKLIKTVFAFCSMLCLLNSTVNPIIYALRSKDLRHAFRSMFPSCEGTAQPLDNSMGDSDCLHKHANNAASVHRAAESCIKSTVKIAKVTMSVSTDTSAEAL
Structure (SMILES),target,test,test system,conditions,EC50
CC(C)[C@H](NC(=O)[C@H](CC(N)=O)NC(=O)[C@H](Cc1ccc(O)cc1)NC(=O)[C@@H](N)CCCCN)C(=O)N[C@H]1CSC(=O)[C@H](Cc2ccccc2)NC(=O)[C@H](Cc2ccc(O)cc2)NC(=O)[C@H](CO)NC(=O)[C@H](C)NC1=O,"Accessory gene regulator protein C (Staphylococcus epidermidis, UniProt Q8VSX2)",,,,40.6 nM
CC(=O)N[C@@H](CCCNC(=N)N)C(=O)N[C@@H](CCCNC(=N)N)C(=O)N[C@H](Cc1ccc(I)cc1)C(=O)N[C@@H](C(N)=O)[C@H](c1ccccc1)c1c[nH]c2ccccc12,"Melanocortin receptor 4 (Mus musculus, UniProt P56450)","cAMP, agonist, AlphaScreen",,,> 100000 nM
CC(N)CCc1ccc(Cl)cc1 (racemic),"DRD3 (Homo sapiens, UniProt P35462)","GTPγS binding, agonist, radiometric",,cell membranes,33.5 nM
CC[C@H](C)[C@H](NC(=O)[C@H](CC(N)=O)NC(=O)[C@H](Cc1c[nH]cn1)NC(=O)[C@@H](NC(=O)[C@H](CCC(N)=O)NC(=O)[C@H](CCCNC(=N)N)NC(=O)[C@@H](NC(=O)[C@@H](N)CCC(=O)O)[C@@H](C)CC)[C@@H](C)O)C(=O)N[C@@H](Cc1ccccc1)C(=O)N[C@@H](CC(=O)O)C(=O)N[C@@H](CC(N)=O)C(=O)N[C@@H](Cc1ccccc1)C(=O)N[C@@H](Cc1ccccc1)C(=O)N[C@@H](CCCCN)C(=O)N[C@@H](CCCNC(=N)N)C(=O)N[C@@H](CCCNC(=N)N)C(=O)O,histidine kinase ComD,"reporter gene, agonist","Streptococcus pneumoniae, TIGR4 comX::lacZ","30 min, pH 7.3, 37 °C",> 1000 nM
CCc1cc(Cc2ccccc2)cc2c1NCCC2NC(=O)C(N)Cc1c(C)cc(O)cc1C (stereo not shown),"Oprd1 (Rattus norvegicus, UniProt P33533)","GTPγS binding, agonist, radiometric",,cell membranes,32 nM
CC[C@H](C)[C@H](NC(=O)[C@H](Cc1ccccc1)NC(=O)[C@H](C)NC(=O)[C@H](C)NC(=O)[C@H](Cc1ccccc1)NC(=O)[C@H](Cc1ccccc1)NC(=O)[C@H](C)NC(=O)[C@H](C)NC(=O)[C@H](CC(C)C)NC(=O)[C@H](CCCNC(=N)N)NC(=O)[C@H](CCSC)NC(=O)[C@@H](N)CCC(=O)O)C(=O)N[C@@H](CC(C)C)C(=O)N[C@@H](C)C(=O)N[C@@H](CCCNC(=N)N)C(=O)N[C@@H](CCCCN)C(=O)N[C@@H](CCCCN)C(=O)O,histidine kinase ComD,,Streptococcus pneumoniae,,> 1000 nM
CC(C)C[C@@H]1NC(=O)[C@H](Cc2ccc(O)cc2)NC(=O)[C@H](CCCNC(=N)N)NC(=O)[C@H](C(C)C)NC(=O)[C@@H]2CCCN2C(=O)[C@H](Cc2ccccc2)NC(=O)[C@H](C)NC(=O)[C@H](CC(N)=O)NC(=O)[C@H](Cc2ccc(OS(=O)(=O)F)cc2)NC(=O)[C@@H](Cc2ccccc2)NC(=O)CSC[C@@H](C(=O)NCCOCCOCC(=O)NCCOCCOCC(=O)N[C@@H](CCCCN=[N+]=[N-])C(N)=O)NC(=O)[C@H](Cc2c[nH]c3ccccc23)NC(=O)[C@H](CCCCN)NC(=O)[C@H](CCCCN)NC1=O,"Nectin-4, extracellular domain (Homo sapiens, UniProt Q96NY8)","covalent labelling, in-gel fluorescence",,"4 h, 37 °C",36000 ± 8000 nM
CN1CCCCC1Cn1c2ccccc2c2cc(C(=O)c3cccc4ccccc34)ccc21 (stereo not shown),"CNR1 (Homo sapiens, UniProt P21554)","GTPγS binding, agonist, radiometric",,cell membranes,263 nM
CC[C@H](C)[C@@H]1NC(=O)[C@H](C(C)C)NC(=O)[C@H](C)NC(=O)[C@H](CCCNC(=N)N)NC(=O)[C@H]([C@@H](C)CC)NC(=O)[C@](C)(NC(=O)[C@H](CCC(=O)O)NC(=O)[C@H](CCCNC(=N)N)NC(=O)CNC(=O)[C@H](CO)NC(=O)[C@H](CC(C)C)NC(=O)[C@H](CCCNC(=N)N)NC(=O)[C@@H](NC(=O)CNC(=O)[C@H](Cc2ccc(O)cc2)NC(=O)[C@@H]2CCCN2C(=O)[C@H](C)NC(=O)[C@H](C)NC(=O)[C@@H](N)CCCNC(=N)N)C(C)C)CCCC=CCCCCCC[C@@](C)(C(=O)N[C@@H](CO)C(=O)NCC(=O)NCC(=O)N[C@@H](CO)C(=O)N[C@@H](CCCNC(=N)N)C(=O)N[C@@H](Cc2c[nH]c3ccccc23)C(=O)O)NC(=O)[C@H](Cc2ccccc2)NC1=O,"RXFP3 (Homo sapiens, UniProt Q9NSD7)","cAMP, agonist",,,5.24 nM
CC(C)C[C@H](NC(=O)[C@H](CCC(=O)O)NC(=O)[C@H](C)NC(=O)[C@H](CCC(=O)O)NC(=O)[C@H](CCC(=O)O)NC(=O)[C@H](Cc1c[nH]cn1)NC(=O)[C@H](CCCNC(=N)N)NC(=O)[C@H](CCC(=O)O)NC(=O)[C@H](CC(N)=O)NC(=O)[C@H](CCCCN)NC(=O)[C@H](CC(C)C)NC(=O)[C@H](CCCNC(=N)N)NC(=O)[C@H](CCC(N)=O)NC(=O)[C@H](CC(C)C)NC(=O)[C@H](CCC(=O)O)NC(=O)[C@H](C)NC(=O)[C@H](CC(=O)O)NC(=O)[C@H](C)NC(=O)[C@@H](NC(=O)[C@H](CC(C)C)NC(=O)[C@H](CCCCN)NC(=O)[C@H](CCC(=O)O)NC(=O)[C@@H](N)C(C)C)[C@@H](C)O)C(=O)N[C@@H](CCC(=O)O)C(=O)N[C@@H](CCCNC(=N)N)C(=O)N[C@@H](CC(C)C)C(=O)N[C@@H](CCCCN)C(=O)N[C@@H](CO)C(=O)N[C@@H](CCC(=O)O)C(=O)N[C@@H](Cc1ccc(O)cc1)C(=O)O,"Plasminogen (PLG, Homo sapiens, UniProt P00747)","plasminogen activation, chromogenic substrate S-2251",,"pH 7.4, 25 °C, chloride buffer, together with: equimolar streptokinase 20 nM, Glu-plasminogen 27 nM",78800 ± 11600 nM
